Measurements of several laboratories.
Lines come from different studies, so protocols differ.
Organism: human immunodeficiency virus 1

For `CCOC(=O)C(C(=O)OCC)=C(c1ccccc1)c1ccccc1`, the inhibition was 55.2% (p24 expression, single-cycle replication; HeLa, NL4-3; 10 µM).
`O=C(O)[C@H](Cc1ccc2ccccc2c1)NC(=O)C1(c2ccc3ccccc3c2)CCN(S(=O)(=O)c2ccc([N+](=O)[O-])cc2)CC1` has a selectivity ratio of 3.6 (NL4-3 wild type; baseline: CC50 over IC50).
The CA-SP1 accumulation of `C=C(C)[C@@H]1CC[C@]2(CCCNCCN3CCN(S(C)(=O)=O)CC3)CC[C@]3(C)[C@H](CC[C@@H]4[C@@]5(C)CC[C@H](OC(=O)CC(C)(C)C(=O)O)C(C)(C)[C@@H]5CC[C@]43C)[C@@H]12` is reported as 50 to 55% (western blot; HEK293T transfected, subtype B NL4-3, virion lysates; 100 nM; baseline: total CA).
The IC50 of `COc1cc(O)cc(O)c1C(=O)/C=C/c1ccccc1` is reported as > 100 µM (viral transcription, luciferase reporter; MT2 transfected with pNL4.3-Luc; 48 h).
The IC50 of `CC(C)(C)OC(=O)N1CCC(C(=O)N[C@@H](Cc2ccc3ccccc3c2)C(=O)O)(c2ccc3ccccc3c2)CC1` is reported as ~58 µM (viral replication, full replication cycle; NL4-3 wild type).
`COc1ccc(-c2cc(=O)c3c(O)c(OC)c(O)c(OC)c3o2)cc1O` has an IC50 of > 20 µM (viral transcription, luciferase reporter; MT2 transfected with pNL4.3-Luc; 48 h).
`C=C(C)[C@@H]1CC[C@]2(CCCNCCCN3CCCC3)CC[C@]3(C)[C@H](CC[C@@H]4[C@@]5(C)CC[C@H](OC(=O)CC(C)(C)C(=O)O)C(C)(C)[C@@H]5CC[C@]43C)[C@@H]12` gave a CA-SP1 accumulation of 25 to 30% (western blot; HEK293T transfected, subtype B NL4-3, virion lysates; 100 nM; baseline: total CA).
The EC50 of `Cc1cccc2c(=O)c(C(=O)NNC(=O)c3ccc(F)cc3)c[nH]c12` is reported as 75 µM (viral replication, item: p24; HeLa, NL4-3; 72 h).
